Measurements from different studies.
Each line is one published result; not all experiments were run side by side. Several values in a cell are separate wells, animals, samples, runs or records. ± marks the error that the study gave. Converted amounts (≈) assume the structure as drawn.

`Cc1nc(NCCOCCOCCNc2ncc(C(=O)NC3=NN(c4ccc(Cl)c(Cl)c4)CC3)c(C)n2)ncc1C(=O)NC1=NN(c2ccc(Cl)c(Cl)c2)CC1` has an EC50 of 0.28 µM (cell viability; Ba/F3 expressing TEL-ABL, Mus musculus).
For `CC(C)(C)NCC(SS(=O)(=O)O)c1ccccc1` (centres unmarked), the spleen weight was 0.74 g (Schistosoma mansoni; perfusion day 52; infected Swiss Webster mice; 600 mg/kg single dose, 1248 h, dosed day 7 post-infection).
With `COC1C=COC2(C)Oc3c(C)c(O)c4c(c3C2=O)C2=NC3(CCN(CC(C)C)CC3)NC2=C(NC(=O)C(C)=CC=CC(C)C(O)C(C)C(O)C(C)C(OC(=O)Nc2cccnn2)C1C)C4=O` (centres unmarked) the IC90 was 0.335 µM (Mycobacteroides abscessus; bacterial growth; subsp. massiliense 097 clinical isolate; rough, slow grower).
For `Cc1ncsc1-c1ccc(CNC(=O)[C@@H]2C[C@H](O)CN2C(=O)[C@@H](NC(=O)CN2CCN(C3CN(CCNC(=O)C[C@@H]4N=C(c5ccc(Cl)cc5)c5c(sc(C)c5C)-n5c(C)nnc54)C3)CC2)C(C)(C)C)cc1`, the protein level was 131% and 145% and 128% and 150% (Spodoptera frugiperda; degrader, targeted LC-MS, item: BRD3; Sf9; 0.0001 µM).
`Nc1nc(-c2cccc(C(F)(F)F)c2)nc2[nH]nc(Nc3ccccc3)c12` gave an IC50 of 8.1 µM (coxsackievirus B3; viral cytopathic effect; HeLa).
For `C=CC(=O)Nc1cccc(Cn2ncc3cnc(Nc4cnn(CCOC)c4)nc32)c1`, “percent of control” read 100% (CSNK1D human; binding, KINOMEscan; 100 nM; lower = stronger binding).
For `COC1CN([C@H]2CC[C@H]([C@@]3(C)Oc4c(Cl)cc(C(=O)NCc5c(SC)cc(C)[nH]c5=O)c(C)c4O3)CC2)C1`, “log2 fold change” read 2.52 (RNA-seq, item: GLIS2; human, whole blood; dose not given, 24 h; baseline: pretreatment baseline).
`Nc1ncc(-c2cc(-c3cnn(CC(F)(F)F)c3)ncc2F)nc1C(=O)NC1CNCC(F)C1` (centres unmarked) gave a remaining binding of 78% (AURKC; KINOMEscan; 1 µM; baseline: DMSO control).
With `Cc1cccc2c1N(C(=O)n1ccnn1)CC2` the germination rate was 3.2% and 80% and 0% and 5.7% and 68.2% (Arabidopsis thaliana; wild type, seeds; 1 µM, high ambient temperature).
The IC50 of `Nc1nc(-c2ccccc2)nc2[nH]nc(Nc3cccc(F)c3)c12` is reported as 0.06 µM (rhinovirus B42; viral cytopathic effect; HeLa).
`C=C(NC(=O)c1csc(-c2nc3c(cc2O)-c2nc(cs2)C(=O)NC(C(C)O)C(=O)NC(=C(C)OC)c2nc(cs2)C(=O)NC2c4nc(cs4)C(=O)NC(COC(=O)c4c5c6c(cccc6n4O)COC(=O)C(OC4CC(C)(O)C(N(C)C)C(C)O4)C2OC5)c2nc-3cs2)n1)C(N)=O` (centres unmarked) has an MIC50 of 7.8 ng/mL (≈ 5.43 nM) (Streptococcus pneumoniae; penicillin-resistant, 10 isolates; pH 5.5).
`CSc1ccc(Nc2n[nH]c3nc(-c4ccccc4)nc(N)c23)cc1` has an IC50 of 6.89 µM (coxsackievirus B3; viral cytopathic effect; HeLa).
For `c1ccc(CN2CCOCCOCCN(CCCCCCCCCCCCN3CCOCCOCCN(CCCCCCCCCCCCN4CCOCCOCCN(Cc5ccccc5)CCOCCOCC4)CCOCCOCC3)CCOCCOCC2)cc1`, the tetracycline MIC was 300 ± 25 µM (Klebsiella pneumoniae; ATCC BAA-2146; quarter MIC, with: tetracycline).
Under “climbing mean difference”, `CC[C@H](C)[C@H](NC(=O)[C@H](Cc1ccc(O)cc1)NC(=O)[C@H](CCC(=O)O)NC(=O)CNC(=O)[C@H](CCC(=O)O)NC(=O)[C@H](CCCCN)NC(=O)[C@H](CCCCN)NC(=O)[C@H](CC(=O)O)NC(=O)[C@H](Cc1c[nH]cn1)NC(=O)[C@H](Cc1c[nH]cn1)NC(=O)[C@H](Cc1c[nH]cn1)NC(=O)[C@H](Cc1c[nH]cn1)NC(=O)[C@H](Cc1c[nH]cn1)NC(=O)[C@H](Cc1c[nH]cn1)NC(=O)[C@H](Cc1c[nH]cn1)NC(=O)[C@H](Cc1c[nH]cn1)NC(=O)[C@H](Cc1c[nH]cn1)NC(=O)[C@@H](N)Cc1c[nH]cn1)C(=O)N[C@@H](CCCCN)C(=O)N[C@@H](CC(C)C)C(=O)N[C@@H](CCCCN)C(=O)N[C@H](C(=O)N[C@H](C(=O)NCC(=O)N[C@@H](CCC(N)=O)C(=O)N[C@@H](CC(=O)O)C(=O)N[C@@H](CO)C(=O)N[C@@H](CO)C(=O)N[C@@H](CCC(=O)O)C(=O)N[C@H](C(=O)N[C@@H](Cc1c[nH]cn1)C(=O)N[C@@H](Cc1ccccc1)C(=O)N[C@@H](CCCCN)C(=O)N[C@H](C(=O)N[C@@H](CCCCN)C(=O)N[C@@H](CCSC)C(=O)N[C@H](C(=O)N[C@H](C(=O)N[C@@H](Cc1c[nH]cn1)C(=O)N[C@@H](CC(C)C)C(=O)N[C@@H](CCCCN)C(=O)N[C@@H](CCCCN)C(=O)N[C@@H](CC(C)C)C(=O)N[C@@H](CCCCN)C(=O)N[C@@H](CCC(=O)O)C(=O)N[C@@H](CO)C(=O)N[C@@H](Cc1ccc(O)cc1)C(=O)N[C@@H](CS)C(=O)N[C@@H](CCC(N)=O)C(=O)N[C@@H](CCCNC(=N)N)C(=O)N[C@@H](CCC(N)=O)C(=O)O)[C@@H](C)O)[C@@H](C)O)C(C)C)[C@@H](C)CC)[C@@H](C)CC)C(C)C` is recorded as -10 (Drosophila melanogaster; α-synuclein A53T transgenic; 60 µM, 11 days post eclosion, unit not given; baseline: untreated).
